{"data": "Measurements of several laboratories", "note": "Protocols differ between the studies behind these lines. Several values in a cell are separate wells, animals, samples, runs or records. ± marks the error that the study gave."}
{"Structure (SMILES)": "CC(=O)CC(c1ccccc1)c1c(O)c2ccccc2oc1=O (centres unmarked)", "test system": "Sprague-Dawley rat, male, plasma", "setting": "oral, 0.3 mg/kg/day, 1 week, without PNS", "measurement": "CL/F", "result": "0.129 ± 0.00883 mL/min/kg"}
{"Structure (SMILES)": "C=CC(=O)N1CCC([C@@H]2CCNc3c(C(N)=O)c(-c4ccc(Oc5ccccc5)cc4)nn32)CC1", "test system": "Sprague-Dawley rats, plasma", "setting": "oral, 16 mg/kg, with: posaconazole 40 mg/kg", "measurement": "CL/F", "result": "96.3 ± 25.8 mL/min/kg"}
{"Structure (SMILES)": "Nc1ccn([C@@H]2O[C@H](CO)[C@@H](O)C2(F)F)c(=O)n1", "test system": "Sprague-Dawley rat, male, plasma", "setting": "intravenous, 5 mg/kg", "measurement": "CL/F", "result": "1.09 ± 0.17 (mg/kg)/(µg/mL)/h"}
{"Structure (SMILES)": "CC[C@@H]([C@H](C)O)n1ncn(-c2ccc(N3CCN(c4ccc(OC[C@@H]5CO[C@@](Cn6cncn6)(c6ccc(F)cc6F)C5)cc4)CC3)cc2)c1=O", "test system": "Sprague-Dawley rats, plasma", "setting": "oral, 40 mg/kg, with: zanubrutinib 16 mg/kg", "measurement": "CL/F", "result": "13 ± 6.33 mL/min/kg"}
{"Structure (SMILES)": "C#Cc1cccc(Nc2ncnc3cc(OCCOC)c(OCCOC)cc23)c1", "assay": "UPLC-MS/MS", "test system": "Wistar rat, male, plasma", "setting": "oral, four weeks, with: CA 175 mg/kg, low dose", "how to read": "baseline: control", "measurement": "CL/F decrease", "result": "11%"}
{"Structure (SMILES)": "O=C(Nc1ccc(OC(F)(F)Cl)cc1)c1cnc(N2CC[C@@H](O)C2)c(-c2ccn[nH]2)c1", "test system": "Sprague-Dawley rat, male, plasma", "setting": "oral, 8 mg/kg", "measurement": "CL/F", "result": "71.8 ± 14.8 mL/min/kg"}
{"Structure (SMILES)": "C1=C/COCc2cc(ccc2OCCN2CCCC2)Nc2nccc(n2)-c2cccc(c2)COC/1", "assay": "LC-MS/MS", "test system": "Sprague-Dawley rat, male, plasma", "setting": "oral, 36 mg/kg, with: voriconazole 30 mg/kg oral", "measurement": "CL/F", "result": "11200 ± 5880 mL/h"}
{"Structure (SMILES)": "Oc1ccc(/C=C/c2cc(O)cc(O)c2)cc1", "test system": "male Wistar rats, plasma", "setting": "oral, 10 mg/kg", "measurement": "CL/F", "result": "79.3 ± 17.3 mL/min/kg"}
{"Structure (SMILES)": "C=CC(=O)N1CCC(Oc2cc3c(Nc4ccc(Cl)c(Cl)c4F)ncnc3cc2OC)CC1", "test system": "male Sprague-Dawley rats, plasma", "setting": "oral, 2 mg/kg, with: schisandrin A pretreatment 20 mg/kg daily 1 week", "measurement": "CL/F", "result": "5 ± 0.667 mL/min/kg"}
{"Structure (SMILES)": "CCc1c(-c2ccccc2)c(-c2ccccc2)nn1-c1ccccc1-c1cccc(OCC(=O)O)c1", "test system": "Sprague-Dawley rat", "setting": "oral, dose not given", "measurement": "CL/F observed", "result": "28.6 mL/min/kg and 33.7 mL/min/kg"}
{"Structure (SMILES)": "O=C1c2ccccc2C(=O)N1CCCN1CCN(C(c2ccc(F)cc2)c2ccc(F)cc2)CC1", "test system": "male Sprague-Dawley rat, whole blood", "setting": "oral, 10 mg/kg", "measurement": "CL/F", "result": "2650 ± 1440 mL/min/kg"}
{"note": "Repeated from above:"}
{"Structure (SMILES)": "CC[C@@H]([C@H](C)O)n1ncn(-c2ccc(N3CCN(c4ccc(OC[C@@H]5CO[C@@](Cn6cncn6)(c6ccc(F)cc6F)C5)cc4)CC3)cc2)c1=O", "test system": "Sprague-Dawley rats, plasma", "setting": "oral, 40 mg/kg, with: zanubrutinib 16 mg/kg", "measurement": "CL/F", "result": "13 ± 6.33 mL/min/kg"}
{"Structure (SMILES)": "C#Cc1cccc(Nc2ncnc3cc(OCCOC)c(OCCOC)cc23)c1", "assay": "UPLC-MS/MS", "test system": "Wistar rat, male, plasma", "setting": "oral, four weeks, with: CA 175 mg/kg, low dose", "how to read": "baseline: control", "measurement": "CL/F decrease", "result": "11%"}
